Published values pooled from the literature.
Each numbered part is a random draw from the data of one study; scales do not carry over between parts.

Sample 1
Target: Fragile X messenger ribonucleoprotein 1, C-terminal low-complexity region (Fmr1, Mus musculus, UniProt P35922)
Method: RNA Bind-n-Seq
Molecule type: RNA
Matrix: in vitro
Tested at: 200 nM
Setting: whole 134-nt RNA, ends assumed
Together with: 150 mM KCl
Baseline: input library
Reading: higher = stronger binding
For `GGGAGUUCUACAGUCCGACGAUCUCAAGUCCUGUGCUACACAUCGUAUGUACCGAAUCGGAGGUUUGGUUUUUUUGGAAAGUAUUAUGUUACGCCGUUCGGAUCUGCACUUCCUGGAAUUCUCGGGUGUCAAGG`, the log2 enrichment was -0.458.
`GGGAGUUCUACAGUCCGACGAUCCACAGACAACACGCUCCCACACAGACACAGAGGGAAGGGGUUGGGAUGGGGACAGGGUGCACAGCAGGGCGGGGUAGGACCCCAGCCCCUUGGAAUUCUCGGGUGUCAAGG` gave a log2 enrichment of 1.87.
For `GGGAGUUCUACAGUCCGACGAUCGUCCUGUGCUACACAUCGUAUGUACCGAAUCAAAUUUUUAAAUUUAAAUUUUUUUAAAAAAGUAUUAUGUUACGCCGUUCGGAUCUGCACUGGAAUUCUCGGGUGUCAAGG`, the log2 enrichment was -1.15.
`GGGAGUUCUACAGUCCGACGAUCGGAGGAAGUAAAAACAAAUGGAAAUGCUUCGGAUAGUGGCAGGGGUGGGGGUUGCUAAGGAAAGGGUGGGAUGGGAGUGGGUAAAGAGUUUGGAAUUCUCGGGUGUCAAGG` gave a log2 enrichment of 0.482.
For `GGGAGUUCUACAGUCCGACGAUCAGUCCUGUGCUACACAUCGUAUGUACCGAAUCGGUUUUUUUGGUUUUUUUGGUUUGGAAAGUAUUAUGUUACGCCGUUCGGAUCUGCACUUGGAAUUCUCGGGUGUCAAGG`, the log2 enrichment was -0.847.
With `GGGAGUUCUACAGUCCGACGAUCCUCAAGUCCUGUGCUACACAUCGUAUGUACCGAAUCGGAAGGGGAAGGAAGGGAAAGUAUUAUGUUACGCCGUUCGGAUCUGCACUUCCAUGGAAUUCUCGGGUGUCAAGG` the log2 enrichment was -0.0201.
`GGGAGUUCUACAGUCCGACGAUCCCUCAAGUCCUGUGCUACACAUCGUAUGUACCGAAUCGGGGUGGUGGUGGGGAAAGUAUUAUGUUACGCCGUUCGGAUCUGCACUUCCAGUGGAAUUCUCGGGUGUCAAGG` gave a log2 enrichment of 0.917.
`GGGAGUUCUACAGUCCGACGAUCUCAAGUCCUGUGCUACACAUCGUAUGUACCGAAUCGGAAAAAGGAAAGGUUUGGAAAGUAUUAUGUUACGCCGUUCGGAUCUGCACUUCCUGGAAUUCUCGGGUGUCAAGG` gave a log2 enrichment of -1.06.
With `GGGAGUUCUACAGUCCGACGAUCCUGUGCUACACAUCGUAUGUACCGAAUCGGGGAAAAAAAGGGAAAAAAAGGAAAAAAAGGGGAAAGUAUUAUGUUACGCCGUUCGGAUCUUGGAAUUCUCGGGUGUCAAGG` the log2 enrichment was -0.395.
For `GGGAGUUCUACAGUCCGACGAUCGCAGGAAGUAAAAACAAAUGGAAAUGCUUGGGAUAGUGGCAGGGGUGGGGGUUGCUAAGGAAAGGGUGGGAUGGGAGUGGGUAAAGAGUUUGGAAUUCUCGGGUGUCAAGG`, the log2 enrichment was 0.0357.

Sample 2
Target: Hepatocyte nuclear factor 3-beta, forkhead domain (FOXA2, Homo sapiens, UniProt Q9Y261, residues 142-269)
Method: protein-binding microarray
Molecule type: hairpin DNA
Matrix: in vitro
Tested at: not given
Setting: whole hairpin DNA, median over replicate spots
Baseline: not given
Reading: higher = stronger binding
Construct (chain): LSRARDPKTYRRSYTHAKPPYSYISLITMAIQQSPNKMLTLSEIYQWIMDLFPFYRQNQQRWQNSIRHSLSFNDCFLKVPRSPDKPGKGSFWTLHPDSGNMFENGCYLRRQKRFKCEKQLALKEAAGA
For `GAGGCCATGTAAACGACGCCTCCTGGCGTCGTTTACATGGCCTCACACTC (5mC at 14)`, the median fluorescence was 3380 a.u.
`GAGGCCATGCGACCAACGCCTCCTGGCGTTGGTCGCATGGCCTCACACTC (5mC at 10)` gave a median fluorescence of 3390 a.u.
`GAGGCCATGTAAACAAGGCCTCCTGGCCTTGTTTACATGGCCTCACACTC` gave a median fluorescence of 3970 a.u.
`GAGGCCATGTAAACCACGCCTCCTGGCGTGGTTTACATGGCCTCACACTC` has a median fluorescence of 3170 a.u.
For `GAGGCCATCGAAACAACGCCTCCTGGCGTTGTTTCGATGGCCTCACACTC`, the median fluorescence was 3230 a.u.
`GAGGCCCGGTAACCAACGCCTCCTGGCGTTGGTTACCGGGCCTCACACTC (5mC at 7 37)` gave a median fluorescence of 3380 a.u.
For `GAGGCCATGCAAACAACGCCTCCTGGCGTTGTTTGCATGGCCTCACACTC (5mC at 36)`, the median fluorescence was 3730 a.u.
`GAGGCCATGCAAACAGCGCCTCCTGGCGCTGTTTGCATGGCCTCACACTC` gave a median fluorescence of 3580 a.u.
The median fluorescence of `GAGGCCATGTAAGCAACGCCTCCTGGCGTTGCTTACATGGCCTCACACTC (5mC at 32)` is reported as 6490 a.u.
`GAGGCCATGCAAACGACGCCTCCTGGCGTCGTTTGCATGGCCTCACACTC (5mC at 30)` has a median fluorescence of 3600 a.u.
For `GAGGCCATGCAATCAACGCCTCCTGGCGTTGATTGCATGGCCTCACACTC`, the median fluorescence was 3340 a.u.
`GAGGCCCGGCAAACAACGCCTCCTGGCGTTGTTTGCCGGGCCTCACACTC (5mC at 7)` gave a median fluorescence of 3740 a.u.
With `GAGGCCATGTAACCCACGCCTCCTGGCGTGGGTTACATGGCCTCACACTC (5mC at 15)` the median fluorescence was 3150 a.u.
`GAGGCCATGTAAACCGCGCCTCCTGGCGCGGTTTACATGGCCTCACACTC (5mC at 15)` has a median fluorescence of 3320 a.u.
`GAGGCCATGTAACCACGGCCTCCTGGCCGTGGTTACATGGCCTCACACTC (5mC at 16)` has a median fluorescence of 2990 a.u.
The median fluorescence of `GAGGCCATGTAACCCGCGCCTCCTGGCGCGGGTTACATGGCCTCACACTC (5mC at 29)` is reported as 3290 a.u.
With `GAGGCCATATAAACAACGCCTCCTGGCGTTGTTTATATGGCCTCACACTC` the median fluorescence was 3030 a.u.
`GAGGCCATGTAACCAGCGCCTCCTGGCGCTGGTTACATGGCCTCACACTC` gave a median fluorescence of 3320 a.u.
With `GAGGCCAGGTAAACAACGCCTCCTGGCGTTGTTTACCTGGCCTCACACTC (5mC at 37)` the median fluorescence was 4000 a.u.
For `GAGGCCATACAAACAACGCCTCCTGGCGTTGTTTGTATGGCCTCACACTC`, the median fluorescence was 3380 a.u.
For `GAGGCCATGCAAACCACGCCTCCTGGCGTGGTTTGCATGGCCTCACACTC (5mC at 15)`, the median fluorescence was 3380 a.u.
For `GAGGCCATGTGACCAACGCCTCCTGGCGTTGGTCACATGGCCTCACACTC (5mC at 34)`, the median fluorescence was 3330 a.u.
For `GAGGCCATGCATACAACGCCTCCTGGCGTTGTATGCATGGCCTCACACTC`, the median fluorescence was 3280 a.u.
For `GAGGCCATGTAAACACGGCCTCCTGGCCGTGTTTACATGGCCTCACACTC`, the median fluorescence was 3840 a.u.
`GAGGCCATGCAAACCACGCCTCCTGGCGTGGTTTGCATGGCCTCACACTC` gave a median fluorescence of 3410 a.u.

Sample 3
Target: Hepatocyte nuclear factor 3-beta, forkhead domain (FOXA2, Homo sapiens, UniProt Q9Y261, residues 142-269)
Method: protein-binding microarray
Molecule type: double-stranded DNA, one strand shown
Matrix: in vitro
Tested at: not given
Setting: k-mer, scored over probes, only values ≥0.25
Reading: higher = stronger binding
Construct (chain): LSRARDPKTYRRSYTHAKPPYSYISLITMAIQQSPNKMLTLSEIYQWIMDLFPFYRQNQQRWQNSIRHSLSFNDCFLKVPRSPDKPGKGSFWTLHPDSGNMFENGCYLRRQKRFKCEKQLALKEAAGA
With `ACGCATAA` the E-score was 0.279.
With `ACATGTAA` the E-score was 0.342.
`CAAACGTA` has an E-score of 0.283.
For `TATTCAAA`, the E-score was 0.328.
With `GTAAATAA` the E-score was 0.363.
With `CAATGACA` the E-score was 0.288.
The E-score of `TAATATCA` is reported as 0.305.
With `AATATCTC` the E-score was 0.264.
The E-score of `AAACAATG` is reported as 0.348.
For `ACAGACAT`, the E-score was 0.258.
`ACAATAAA` gave an E-score of 0.337.
With `GTTAGACA` the E-score was 0.297.

Sample 4
Target: Histone acetyltransferase KAT6A, winged helix 1, GST fusion (KAT6A, Homo sapiens, UniProt Q92794, residues 1-85)
Method: protein binding microarray
Molecule type: double-stranded DNA, one strand shown
Matrix: in vitro
Tested at: not given
Setting: 8-mer, flanks averaged, mean of 2 arrays, mostly near background
Baseline: not given
Reading: higher = stronger binding
Residues (chain): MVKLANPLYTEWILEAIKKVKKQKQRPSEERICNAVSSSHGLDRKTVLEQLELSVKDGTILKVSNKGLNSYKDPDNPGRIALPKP
The E-score of `CAGGATGC` is reported as -0.0742.
The E-score of `AGTCGCCA` is reported as -0.167.
For `ACGTGTCA`, the E-score was -0.215.
`CCAAAGCA` gave an E-score of -0.108.
`CCGTTGAG` gave an E-score of 0.136.
`AATGAGGA` gave an E-score of -0.24.
`CGAAGTGA` gave an E-score of -0.184.
The E-score of `CCATACTC` is reported as -0.102.
With `ATTCGCGC` the E-score was 0.392.
`ATATTCAC` has an E-score of -0.215.
With `CGGCGCCG` the E-score was 0.473.
For `CAATGTTA`, the E-score was -0.0822.
`TCTCCTAA` gave an E-score of -0.328.
With `CAATGTGA` the E-score was -0.067.
For `GGAACCCC`, the E-score was 0.183.
`CCGACCAC` gave an E-score of -0.1.
For `ACGCGTGG`, the E-score was 0.293.

Some of these lines once more (sample 4):
The E-score of `AGTCGCCA` is reported as -0.167.
`ATATTCAC` has an E-score of -0.215.
`CCGTTGAG` gave an E-score of 0.136.
